Assay results collected from several papers.
Each line is one published result; not all experiments were run side by side.

CC[C@H](C)[C@@H]1NC(=O)[C@H](Cc2ccc(O)cc2)NC(=O)CSC[C@@H](C(N)=O)NC(=O)[C@H](CC(N)=O)NC(=O)[C@H](Cc2c[nH]cn2)NC(=O)[C@H](Cc2ccc(O)cc2)NC(=O)[C@H](CC(=O)O)NC(=O)[C@H](Cc2ccc(F)cc2)NC(=O)[C@H](CC(C)C)NC(=O)[C@H](CCCNC(=N)N)NC1=O  Papp (PAMPA; 200 µM, 5 h, pH 7.4): 0.0273 ×10⁻⁶ cm/s
C/C(N)=N/C(=N\S(=O)(=O)c1ccc(C(F)(F)F)cc1)N1C[C@H](c2ccccc2)C(c2ccc(Cl)cc2)=N1  Papp (PAMPA; pH 5): 522 ×10⁻⁶ cm/s
CC[C@H](C)[C@@H]1NC(=O)[C@H](Cc2ccc(O)cc2)NC(=O)CSC[C@@H](C(N)=O)NC(=O)[C@H](CC(N)=O)NC(=O)[C@H](Cc2c[nH]cn2)NC(=O)[C@H](Cc2ccc(O)cc2)NC(=O)[C@H](CC(=O)O)NC(=O)[C@H](Cc2ccc(F)c(F)c2)NC(=O)[C@H](CC(C)C)NC(=O)[C@H](CCCNC(=N)N)NC1=O  Papp (PAMPA; 200 µM, 5 h, pH 7.4): 0.0358 ×10⁻⁶ cm/s
Cc1cc(C(=O)N[C@@H](CC(=O)NC(C)(C)C)C(=O)NCCNC(=O)c2cc(-c3ccccc3)ccn2)no1  Papp (PAMPA; pH 7.4): 26.6 ×10⁻⁶ cm/s
O=C(c1ccnc(N2Cc3cn(Cc4ccc(F)cc4)nc3C2)n1)N1CCOCC1  Papp (MDCK-MDR1): 12 ×10⁻⁶ cm/s
CC(C)OC(=O)c1ccc(O)cc1  Papp (PAMPA; 5 µM, pH 7.4): 5.64 ×10⁻⁶ cm/s
CN(C)C(=O)c1cccc(N2Cc3cn(Cc4ccc(F)cc4F)nc3C2)c1  Papp (MDCK-MDR1): 46.3 ×10⁻⁶ cm/s
CCC(C)OC(=O)c1ccc(O)cc1 (stereo not shown)  Papp (PAMPA; 5 µM, pH 7.4): 5.64 ×10⁻⁶ cm/s
COc1ccc(CNc2ccc3c(c2)S(=O)(=O)C=C3)cc1  Papp (PAMPA-BBB; pH 7.4): 10.1 ×10⁻⁶ cm/s
CN(C)C(=O)c1cccc(N2Cc3cn(Cc4ccc(F)c(F)c4)nc3C2)c1  Papp (MDCK-MDR1): 39.3 ×10⁻⁶ cm/s
O=S1(=O)C=Cc2ccc(NCc3ccccc3O)cc21  Papp (PAMPA-BBB; pH 7.4): 16.9 ×10⁻⁶ cm/s
Cc1cc(C(=O)N[C@@H](CC(=O)NC(C)(C)C)C(=O)NCCNC(=O)c2cccc(-n3cccn3)c2)no1  Papp (PAMPA; pH 7.4): 6.4 ×10⁻⁶ cm/s
COc1ccc(CNc2ccc3c(c2)S(=O)(=O)CC3)cc1  Papp (PAMPA-BBB; pH 7.4): 23.1 ×10⁻⁶ cm/s
CN(C)C(=O)c1ccnc(N2Cc3cn(Cc4ccc(F)cc4)nc3C2)n1  Papp (MDCK-MDR1): 27.3 ×10⁻⁶ cm/s
COc1cccc(CNc2ccc3c(c2)S(=O)(=O)C=C3)c1  Papp (PAMPA-BBB; pH 7.4): 12.8 ×10⁻⁶ cm/s
CN(C)C(=O)c1cccc(N2Cc3cn(Cc4ccc(F)cc4)nc3C2)c1  Papp (MDCK-MDR1): 43.4 ×10⁻⁶ cm/s

A few entries again:
CCC(C)OC(=O)c1ccc(O)cc1 (stereo not shown)  Papp (PAMPA; 5 µM, pH 7.4): 5.64 ×10⁻⁶ cm/s
